Experimental data pooled from the literature.
Protocols differ between the studies behind these lines. Numbers after ± are the reported error.

Cc1cc2c(cc1C1(c3ncc(C(=O)O)cn3)CC1)C(C)(C)CCC2(C)C
HDL level (Sprague-Dawley rat, male, plasma; oral, 100 mg/kg, 24 h, sesame oil vehicle): 41 ± 3.6 mg/dL

CC(=O)N[C@H](C(=O)N[C@H](C(=O)N[C@@H](CCCNC(=N)N)C(=O)N1Cc2ccccc2C[C@H]1C(=O)N[C@@H](Cc1ccccc1)C(N)=O)C1CCCCC1)C(C)C
cytokine level (human PBMC; Bio-Plex multiplex, refers to: RANTES; 500 µg/mL, 24 h): 6990 ± 8150 pg/mL

CC(C)[C@H](NC(=O)CNC(=O)[C@H](CCC(N)=O)NC(=O)[C@H](C)N)C(=O)O
AUC(0-inf) (human, both sexes, plasma; intravenous infusion, 15 mg/kg/h, 2 h infusion, geometric mean): 553 ng·h/mL

CC[C@H](C)[C@H](NC(=O)[C@@H](NC(=O)[C@H](Cc1ccccc1)NC(=O)[C@@H](N)CC(=O)O)C(C)C)C(=O)N[C@@H](Cc1ccccc1)C(=O)N[C@@H](CC(C)C)C(=O)N[C@@H](CC(=O)O)C(=O)N[C@H](C(=O)N[C@@H](CCCCN)C(=O)N[C@@H](Cc1c[nH]cn1)C(=O)N[C@@H](Cc1ccccc1)C(=O)N[C@@H](CO)C(=O)N1CCC[C@H]1C(=O)N[C@@H](CCC(=O)O)C(=O)N[C@@H](CC(=O)O)C(=O)N[C@@H](CC(C)C)C(=O)N[C@H](C(=O)N[C@H](C(=O)N[C@@H](CCCCN)C(=O)O)C(C)C)[C@@H](C)O)C(C)C
CD minimum wavelength (circular dichroism; 5 mM phosphate; 28 µM, pH 7): ~200 nm

CCCC[C@H](NC(C)=O)C(=O)N[C@H]1CC(=O)NCCCC[C@@H](C(=O)N[C@@H](C(=O)N2CCC[C@@H]2C(N)=O)C(C)C)NC(=O)[C@H](Cc2c[nH]c3ccccc23)NC(=O)[C@H](CCCN=C(N)N)NC(=O)[C@@H](Cc2ccc3ccccc3c2)NC(=O)[C@@H]2CCCN2C1=O
plasma concentration (dog, cachectic, plasma; subcutaneous, 0.75 mg/kg, day 1, 4 h post-dose): 1230 ± 300 ng/mL

O=c1nc(NO)ccn1[C@@H]1O[C@H](CO)[C@@H](O)[C@H]1O
mRNA level (RT-PCR, refers to: CYP2C11; rat, arthritis model, liver; oral, 80 mg/kg twice daily, 5 days; relative to: untreated arthritic rats): 0.4 fold

[64Cu+2].c1cnc(CNCc2ccc(CN3CCCN4CCNCCCN(CC4)CC3)cc2)nc1
tissue uptake (CXCR4; NOD/SCID mouse, U87 and U87-stb-CXCR4 xenografts, bladder; iv, 120 min, ex vivo): 2.05 ± 0.98 %ID/g

COc1cc(CCC(C)=O)ccc1O
IC50 (mAb 5-3H1; antibody binding, indirect competitive ELISA; together with: coating antigen 3-OVA): > 4 µg/mL

Clc1cccc(-c2nnc(/N=C/C=C/c3ccccc3)nc2/N=C/C=C/c2ccccc2)c1Cl
time on rotating rod (rotarod test; white albino mice, both sexes; intraperitoneal, 50 mg/kg): 55.6 ± 12.3 s

COc1cc(O)cc2c1-c1ccc(O)c(OC)c1CC2
viability (BV-2; cell growth or viability, MTT; 10 µM, 24 h): 101%

CCC/C(=C\C1=C(C(F)(F)F)C(=O)c2ccccc2C1=O)C(=O)N(CC)CC
CLint (mouse liver S9; 1 µM, phase II UGT conditions): 56 mL/min/kg

N=C(N)NCCC[C@@H]1NC(=O)[C@H](Cc2c[nH]c3ccccc23)NC(=O)[C@@H](CC2CCCCC2)NC(=O)[C@@H]2CCCN2C(=O)[C@@H](NC(=O)CCc2ccccc2)CCCNC1=O
alpha rate constant (two-compartment model; C57BL/6J mice, brain; subcutaneous, 1 mg/kg): 2.03 h⁻¹

[64Cu+2].c1ccc(CNCc2ccc(CN3CCCN4CCNCCCN(CC4)CC3)cc2)nc1
tissue uptake (CXCR4; NOD/SCID mouse, U87 and U87-stb-CXCR4 xenografts, blood; iv, 60 min, ex vivo): 2.38 ± 0.2 %ID/g

CCCCC/C=C/C(=O)CCc1ccc(O)c(OC)c1
IC50 (mAb 5-3H1; antibody binding, indirect competitive ELISA; together with: coating antigen 3-OVA): > 4 µg/mL

CC(C)(C)c1nc(-c2cccc(NS(=O)(=O)c3c(F)cccc3F)c2F)c(-c2ccnc(N)n2)s1.Cc1[nH]c2ccccc2c1CCNCc1ccc(/C=C/C(=O)NO)cc1
phase stability time (pH 1.2, slurry): ≤ 24 h

N#CCc1cccc(Cl)c1-c1ccc2[nH][11c](=O)[nH]c2c1
brain uptake increase (P-glycoprotein and Bcrp; ex vivo brain uptake; mouse; injection, 5 min, together with: tariquidar and Ko143; relative to: without inhibitors): 186%

COc1cc(NC(C)=O)c2c(c1O)-c1c(OC)c(OC)cc3c1C(C2)N(C)CC3 (stereo not drawn)
remaining compound (rat heart homogenate; 50 µg/mL, 24 h, room temperature, post-preparative storage): 91.5 ± 2.4%

COc1cc(OC)cc(C2=C3C(C)=C(I)C(/C=C/c4cccs4)=[N+]3[B-](F)(F)n3c(/C=C/c4cccs4)c(I)c(C)c32)c1
log molar absorptivity (DMSO): 4.59 M⁻¹ cm⁻¹

Nc1nccc(-c2cn(C3CC3)c3ccccc23)n1
plasma concentration (radiolabelled metabolite profiling; human male, plasma; oral, 110 mg, 6 h): 15.2 ng/g

O=C(NCCCN(CCCCN(CCCNC(=O)c1cccc(=O)n1[O-])C(=O)c1cccc(=O)n1[O-])C(=O)c1cccc(=O)n1[O-])c1cccc(=O)n1[O-].[89Zr+4]
intact complex (radio-TLC; PBS; 1 h, pH 7.4, 37 °C, together with: Ni^2+ 10-fold excess): 98.4 ± 2.3%

CCCC[C@@H]1NC(=O)[C@@H](NC(=O)[C@H](CCC(=O)O)NC(=O)CNC(=O)CN2CCN(CC(=O)O)CCN(CC(=O)O)CCN(CC(=O)O)CC2)CCCCNC(=O)C[C@@H](C(N)=O)NC(=O)[C@H](C(C)C)NC(=O)[C@@H]2CCCN2C(=O)[C@H](CCCNC(=N)N)NC(=O)CNC(=O)[C@H](Cc2c[nH]c3ccccc23)NC(=O)[C@H](CCCNC(=N)N)NC(=O)[C@@H](Cc2ccccc2)NC(=O)[C@H](Cc2c[nH]cn2)NC(=O)[C@H](CCC(=O)O)NC1=O [gallium-67 labelled]
intestine uptake (normal C57 mice; intravenous, 0.037 MBq, 4 h): 2 ± 0.81 %ID

N=C(N)NCCC[C@@H]1NC(=O)[C@H](CCCCNC(=O)CC[C@H](NC(=O)CC[C@H](NC(=O)CN2CCN(CC(=O)O)CCN(CC(=O)O)CCN(CC(=O)O)CC2)C(=O)N[C@@H](CCC(=O)NCCCC[C@@H]2NC(=O)[C@@H](Cc3ccccc3)NC(=O)[C@H](CC(=O)O)NC(=O)CNC(=O)[C@H](CCCNC(=N)N)NC2=O)C(=O)NCCCC[C@@H]2NC(=O)[C@@H](Cc3ccccc3)NC(=O)[C@H](CC(=O)O)NC(=O)CNC(=O)[C@H](CCCNC(=N)N)NC2=O)C(=O)NCCCC[C@@H]2NC(=O)[C@@H](Cc3ccccc3)NC(=O)[C@H](CC(=O)O)NC(=O)CNC(=O)[C@H](CCCNC(=N)N)NC2=O)NC(=O)[C@@H](Cc2ccccc2)NC(=O)[C@H](CC(=O)O)NC(=O)CNC1=O [indium-111 labelled]
tissue uptake (female athymic nu/nu mice, brain; intravenous, 4 h): 0.1 ± 0.02 %ID/g

Cn1c(=O)oc2ccc(-c3ccc(CC(C#N)NC(=O)C4CNCCCO4)c(F)c3)cc21 (stereo not drawn)
chest pain incidence (human; oral, 10 mg once daily, TEAE, multiple ascending dose): 11.1%

Oc1ccc2ccccc2c1/N=N/c1ccc(/N=N/c2ccccc2)cc1
absorption rate constant (Sprague-Dawley rats both sexes, whole blood; oral, 50 mg/kg): 0.437 h⁻¹

Repeated from above:
[64Cu+2].c1ccc(CNCc2ccc(CN3CCCN4CCNCCCN(CC4)CC3)cc2)nc1
tissue uptake (CXCR4; NOD/SCID mouse, U87 and U87-stb-CXCR4 xenografts, blood; iv, 60 min, ex vivo): 2.38 ± 0.2 %ID/g

CCCCC/C=C/C(=O)CCc1ccc(O)c(OC)c1
IC50 (mAb 5-3H1; antibody binding, indirect competitive ELISA; together with: coating antigen 3-OVA): > 4 µg/mL
